Assay results collected from several papers.
A part holds a random share of what one study measured. Positions count from the first letter of the parent shown.

Block 1
Target: RNA binding protein fox-1 homolog 2, RRM domain, GST-SBP tag (RBFOX2, Homo sapiens, UniProt O43251-10, residues 100-194)
Method: RNA Bind-n-Seq
Form: RNA
Matrix: in vitro
Tested at: 365 nM
Setting: natural RNA segment, single round, ends assumed
Relative to: no-protein control
Reading: higher = stronger binding
All sequences stand within: GGGAGUUCUACAGUCCGACGAUC … UGGAAUUCUCGGGUGCCAA
Construct (chain): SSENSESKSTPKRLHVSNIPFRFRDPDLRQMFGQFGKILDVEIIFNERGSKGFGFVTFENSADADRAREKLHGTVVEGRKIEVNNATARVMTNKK
Strand	RBNS enrichment (R)
AUCACAGUGAUUUGGUCCCAUUGGAGCCUUUGGCCCCAGGGGCACUCACUUUUUCUCAUCAGAGUCUCUCCUUGCCACAGCCCGGGUCACCAUCGGUUCCCUGGCCUCCC	0.179
UUACAUUGUUAGGGAGCUGGUGAUUUUUUGCCAUGGUCGUAUCGUGGACAGCUUUUCCGUGGAAAUUCAAGGCAUCUGUAUUAGGCAAAUGUGAGUGCCCUUGAUCUUGU	0.819
AAAAAUGGAGCAACGUGAGUGACCGCCCAAGGUCACAGGCACAGAACCUUUCCCCUGCUAUCUCCCUUCCUGCUUCGAAGGACUCAUUCUUUCCUCCCACUUCCACCCCA	0.432
GCCUGUGUGUUACCACUGCCUCAUCAGGAGGCUGCCAUUGGCAGUGGCUGCUGCUGGCCUCCCUGCAAGUCCCCUCUUCUUCCUGUUGCGUGCCUGGACUCAGGAGCAUA	1.69
UCUCAGUGCCAUAUGAAGUAGCAAAAGGCAGUAUCGGCCAGAUCAGUGUUACAUUGAUUCUAAAAUUACAGUGUCCCCAUUAGACAACUAUUUUAGGUGCUGGAGUAUGU	0.28
GGAGGACGCCACUCCGGCCCUUCACCCUUGCCAAGUGAGCUGCUCACAGUGUGGUCAGGGCUGCGCGUGCUGGAGGCCCUCCUGCCUGGGCCUUGUGGGGCAAAUAUUGG	0.433
CUGAGGCCAUGAGAACCUGAGGGGCAUCUGCCCAGGACAGGAGCCAUGGCAUAUGACAAAGACCAAUGAGGGACCAGGAAAAAAAGUGAUGUCCCCUUUCCCUGCCACCU	0.214
UUUCACCAGUCACAUAAACACUAUGUGGACUGGCAGUGGUUCUCUGCUCCUCCACAUCCUGGAGCGUCCCAGCACCUCCCCACCUACUUUUGUUCCCAAUGUCAGCCACC	0.854
GUGAAGCUGCUCAUCGAGAUGGAGCAGCGGCUGGAGCAGGGCCAGGCCAUCGACGACCUCAUGCCUGCCCAGAAAUGAAGCCCGGCCCACACCCGACACCAGCCCUGCUG	0.704
GCUGGAGGAAAUAGGCUUGUUUCCAGAGUUGUCCUUAUACAAAAUGUAUAAAAAGCAGUUUCUGGUGUGACUUGUGCUCUGCCUCCACCCCUUGACAUCCCAAAAUAUCC	0.324
AAAAAUAACCCUAAAGUGAAGUGGCUCUAUACUGUUUUAUAGAGUACUUUAACGUGUAUAGAUAUCUUGUAAACUUGUAUUGUGGAUGUGUAAAUAAUAUGUACUUUGGG	1.68
CUUUGAGGGGCUGCUCUUCUCAUCUGGUGCCAAAAGUUCAUUUGCAGCUUCUACAACAAUCCCCACAAAAGAUGAACAGCCAUUAGAAGCCUCCCCUCCUUUUGAUGCUC	0.41

Block 2
Target: CCNB2, cyclin fold, Cln2 fusion (human)
Method: yeast growth competition, sequencing
Matrix: yeast
Setting: weak parent motif
Relative to: not given
Reading: higher = stronger binding
Starting sequence: CDC42EP1 docking peptide (human); SLVVGKLSFDSSP; partner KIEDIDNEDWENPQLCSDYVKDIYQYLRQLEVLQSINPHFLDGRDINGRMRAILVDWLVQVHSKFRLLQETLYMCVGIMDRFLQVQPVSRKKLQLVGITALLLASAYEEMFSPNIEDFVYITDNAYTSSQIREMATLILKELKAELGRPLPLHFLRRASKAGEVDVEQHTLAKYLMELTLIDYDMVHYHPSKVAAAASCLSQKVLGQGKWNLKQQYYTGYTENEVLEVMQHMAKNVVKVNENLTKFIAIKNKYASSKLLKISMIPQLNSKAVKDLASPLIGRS
Change	normalised enrichment score
L2A	-0.324
V3A	-0.516
K6A	-0.9
S12A	-0.00863
S8A	-0.516
V4A	-0.489
S1A	-0.366

Block 3
Target: Interferon regulatory factor 7, full length, phosphomimetic (IRF7, Homo sapiens, UniProt Q92985, residues 1-503, S471D/S472D/S475D/S476D/S477D/S483D/S484D/S487D)
Method: protein-binding microarray
Form: double-stranded DNA, one strand shown
Matrix: in vitro
Tested at: 2200 nM top
Setting: 60-bp whole probe
Together with: salmon DNA 0.4 mg/ml
Relative to: random background probes
Reading: higher = stronger binding
All sequences stand within: GCCTAGCAC … GTCTTGATTCGCTTGACGCTGCTG
Construct (chain): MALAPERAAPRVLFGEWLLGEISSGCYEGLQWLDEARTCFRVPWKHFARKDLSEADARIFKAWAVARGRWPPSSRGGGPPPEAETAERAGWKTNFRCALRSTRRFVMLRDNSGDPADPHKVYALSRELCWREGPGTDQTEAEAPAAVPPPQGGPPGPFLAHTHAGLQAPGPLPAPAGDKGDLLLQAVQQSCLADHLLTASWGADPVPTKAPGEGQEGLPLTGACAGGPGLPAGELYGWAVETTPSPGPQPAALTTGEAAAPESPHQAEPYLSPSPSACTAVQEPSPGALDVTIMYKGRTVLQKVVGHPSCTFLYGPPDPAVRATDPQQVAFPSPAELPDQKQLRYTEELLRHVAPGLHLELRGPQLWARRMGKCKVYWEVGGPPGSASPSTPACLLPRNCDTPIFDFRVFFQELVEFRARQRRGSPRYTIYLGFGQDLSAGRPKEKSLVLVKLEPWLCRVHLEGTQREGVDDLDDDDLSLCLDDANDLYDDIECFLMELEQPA
Strand	fitted relative affinity
TCACCTTCAGCTCTAGGACTGTGCTAG	1.03 z-score
GTAGATATCGGGTATCGATTAGTGCTA	0.123 z-score
TTCGGTTTCGACACTGGGTTAGTGCTA	4.69 z-score
GACTGACTGGACACTGGGGACGTGCTA	-0.535 z-score
TGCGGTTCAGATATAGGATAGTGCTAG	0.303 z-score
TTAGATTTCAGCTCCGATTAGTGCTAG	0.45 z-score
GACGGTCTCCTTCTCCTGCCGTGCTAG	0.715 z-score
GACGGACTGCTTATCGTGACGTGCTAG	0.209 z-score
TCATCATTGTTTTTCATACTGTGCTAG	1.73 z-score
TCAACTCTTTCTGTCAGACTGTGCTAG	1.46 z-score
TTAGATTTCGGGACTGGCTTAGTGCTA	0.937 z-score
TCACATTTTTTTTGCAAACTGTGCTAG	1.33 z-score
GACGGACTGGGACTGGGGATGTGCTAG	-0.674 z-score
GCCGGTCTCCTTCTCCTGACGTGCTAG	0.706 z-score
TCATATATTATATATACAACTGTGCTA	0.513 z-score
TTAGGTATCGGTATCGCTTAGTGCTAG	0.833 z-score
GACGGTTTCGGGACTGGGGCCGTGCTA	3.32 z-score
CCCAATCTCTCTTCACATATGTGCTAG	1.46 z-score
AAGACTCTCTTGTCTGGATGTGTGCTA	0.134 z-score
GACGATATCGGGTATAGAGACGTGCTA	-0.161 z-score

Block 4
Target: Fragile X messenger ribonucleoprotein 1, C-terminal low-complexity region (Fmr1, Mus musculus, UniProt P35922)
Method: RNA Bind-n-Seq
Form: RNA
Matrix: in vitro
Tested at: 200 nM
Setting: whole 134-nt RNA, ends assumed
Together with: 150 mM LiCl
Relative to: input library
Reading: higher = stronger binding
Library: 7-deaza-guanosine replaces G
All sequences stand within: GGGAGUUCUACAGUCCGACGAUC … UGGAAUUCUCGGGUGUCAAGG
Strand	log2 enrichment
GUCCUGUGCUACACAUCGUAUGUACCGAAUCGGGUUUUUGGGAAAAAGGGUUUUUGGGAAAGUAUUAUGUUACGCCGUUCGGAUCUGCAC	-2.62
AAGUCCUGUGCUACACAUCGUAUGUACCGAAUCGGUUUUGGGGUUUUGGGUUUUGGGAAAGUAUUAUGUUACGCCGUUCGGAUCUGCACU	-1.06
UAACUUUAGAGGAGGAUCUGAUGGAUAUGGCAGUGGACGUGGAUUUGGGGAUGGCUACAAUGGGUAUGGAGGAGGACCUGGAGGUGGCAA	0.00242
AGUCCUGUGCUACACAUCGUAUGUACCGAAUCGGCCCCGGGGCCCCGGGGCCCCGGGAAAGUAUUAUGUUACGCCGUUCGGAUCUGCACU	-1.87
UUUAGACAGAAACAAGAAGCAACAGAGUCCCUUAAGUGCCAAGAGGAACUUCGAGAGCGCCUUCAUGAGGAGUCCAGGGCCAGAGAACAG	-0.603
UUCUGAGAAGGUUGCGCAGCAGCUGUGCCCGGCAGUCUAGAGGCGCAGAAGAGGAAGCCAUCGCCUGGCCCCGGCUCUCUGGACCUUGUC	-2.29
CUCAAGUCCUGUGCUACACAUCGUAUGUACCGAAUCGGCCGGGGCCGGGCCGGAAAGUAUUAUGUUACGCCGUUCGGAUCUGCACUUCCA	-0.231
UUCUCUGCCGGCUCAGAGGAGAGGAGACGCCGUGAGCGGGACGACCAGAUGUACCGAGAGCGGCUGCGCACCUUGCUGGUCAUCGCGGUU	-2.11
UCAAGUCCUGUGCUACACAUCGUAUGUACCGAAUCGGUUUUUUUGGAAAGGUGGAAAGUAUUAUGUUACGCCGUUCGGAUCUGCACUUCC	-0.549
ACCAUGCAGGUGGGCAUCUUUGGGAAGUGGGGCAAGGGGGGGAUAGGGAGGGGGGUAACACUUUGUGAACAGGUGGUCCCAGGUCGUUUC	1.48
AGUCCUGUGCUACACAUCGUAUGUACCGAAUCGGAAAAAAAGGUUUUUUUGGUUUGGAAAGUAUUAUGUUACGCCGUUCGGAUCUGCACU	-4.04

Block 5
Target: ABI1, truncated, D143A, DHFR fusion (Arabidopsis thaliana)
Method: DHFR PCA, deep sequencing
Matrix: yeast
Setting: methotrexate growth selection, single substitutions
Together with: (+)-ABA 0.0091 µM
Relative to: wild-type fitted maximum
Reading: higher = stronger binding
Starting sequence: PYL1, truncated, DHFR fusion (Arabidopsis thaliana); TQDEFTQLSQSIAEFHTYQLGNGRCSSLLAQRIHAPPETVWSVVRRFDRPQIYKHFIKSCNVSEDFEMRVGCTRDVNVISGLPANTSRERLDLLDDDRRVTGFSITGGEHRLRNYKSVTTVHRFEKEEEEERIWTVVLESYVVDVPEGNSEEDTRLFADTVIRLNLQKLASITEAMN; partner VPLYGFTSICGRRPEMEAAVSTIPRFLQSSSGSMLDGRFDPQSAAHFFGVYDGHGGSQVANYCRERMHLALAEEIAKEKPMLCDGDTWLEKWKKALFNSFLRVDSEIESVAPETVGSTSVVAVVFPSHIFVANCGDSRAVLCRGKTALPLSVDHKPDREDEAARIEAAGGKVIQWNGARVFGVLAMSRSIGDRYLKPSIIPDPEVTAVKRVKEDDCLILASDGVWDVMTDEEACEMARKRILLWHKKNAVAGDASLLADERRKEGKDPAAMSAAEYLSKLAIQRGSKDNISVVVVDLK
Change	relative binding score [%]
E129G	62.3
K126S	75
V137C	-6.96
E4P	6.28
D96W	-2.95
F124P	0.167
K54I	0.736
V76M	1.69
R49I	4.73
A158Y	31.1
R32E	28.5
V78I	42.8
P83G	58.7
Q7I	17.1
R88H	52.5
N114Y	-0.96
P36T	17.3
K58H	15.1
E125P	27

Other studies, line by line
Molecule	target	assay	test system	conditions	scale	endpoint	result
PhoQ, residues 284 288 289 292 302 303 SLSVQF	PhoP, residues 12 14 15 18 19 NQAHL (Escherichia coli, UniProt P23836)	Sort-seq, refers to: YFP reporter	E. coli	PhoQ-PhoP variant library, together with: 10 µM Mg2+	relative to: high Mg2+ state, higher = stronger signaling	fold induction	9.96

Excerpt of the above (block 3):
Strand	fitted relative affinity
GCCGGTCTCCTTCTCCTGACGTGCTAG	0.706 z-score
TCATATATTATATATACAACTGTGCTA	0.513 z-score
TTAGGTATCGGTATCGCTTAGTGCTAG	0.833 z-score
GACGGTTTCGGGACTGGGGCCGTGCTA	3.32 z-score
CCCAATCTCTCTTCACATATGTGCTAG	1.46 z-score
AAGACTCTCTTGTCTGGATGTGTGCTA	0.134 z-score
